Measured values from different studies.
Lines come from different studies, so protocols differ. Several values in a cell are separate wells, animals, samples, runs or records. ± marks the error that the study gave.
B1: α-TTP M209D; sequence looked up; chain MAEARSQPSAGPQLNALPDHSPLLQPGLAALRRRAREAGVPLAPLPLTDSFLLRFLRARDFDLDLAWRLLKNYYKWRAECPEISADLHPRSIIGLLKAGYHGVLRSRDPTGSKVLIYRIAHWDPKVFTAYDVFRVSLITSELIVQEVETQRNGIKAIFDLEGWQFSHAFQITPSVAKKIAAVLTDSFPLKVRGIHLINEPVIFHAVFSDIKPFLTEKIKERIHMHGNNYKQSLLQHFPDILPLEYGGEEFSMEDICQEWTNFIMKSEDYLSSISESIQ
B2: UGT1A9 (Homo sapiens, UniProt O60656); chain GKLLVVPMDGSHWFTMRSVVEKLILRGHEVVVVMPEVSWQLGRSLNCTVKTYSTSYTLEDLDREFKAFAHAQWKAQVRSIYSLLMGSYNDIFDLFFSNCRSLFKDKKLVEYLKESSFDAVFLDPFDNCGLIVAKYFSLPSVVFARGILCHYLEEGAQCPAPLSYVPRILLGFSDAMTFKERVRNHIMHLEEHLLCHRFFKNALEIASEILQTPVTEYDLYSHTSIWLLRTDFVLDYPKPVMPNMIFIGGINCHQGKPLPMEFEAYINASGEHGIVVFSLGSMVSEIPEKKAMAIADALGKIPQTVLWRYTGTRPSNLANNTILVKWLPQNDLLGHPMTRAFITHAGSHGVYESICNGVPMVMMPLFGDQMDNAKRMETKGAGVTLNVLEMTSEDLENALKAVINDKSYKENIMRLSSLHKDRPVEPLDLAVFWVEFVMRHKGAPHLRPAAHDLTWYQYHSLDVIGFLLAVVLTVAFITFKCCAYGYRKCLGKKGRVKKAHKSKTH
UniProt P33424, sequence (whole entry, looked up): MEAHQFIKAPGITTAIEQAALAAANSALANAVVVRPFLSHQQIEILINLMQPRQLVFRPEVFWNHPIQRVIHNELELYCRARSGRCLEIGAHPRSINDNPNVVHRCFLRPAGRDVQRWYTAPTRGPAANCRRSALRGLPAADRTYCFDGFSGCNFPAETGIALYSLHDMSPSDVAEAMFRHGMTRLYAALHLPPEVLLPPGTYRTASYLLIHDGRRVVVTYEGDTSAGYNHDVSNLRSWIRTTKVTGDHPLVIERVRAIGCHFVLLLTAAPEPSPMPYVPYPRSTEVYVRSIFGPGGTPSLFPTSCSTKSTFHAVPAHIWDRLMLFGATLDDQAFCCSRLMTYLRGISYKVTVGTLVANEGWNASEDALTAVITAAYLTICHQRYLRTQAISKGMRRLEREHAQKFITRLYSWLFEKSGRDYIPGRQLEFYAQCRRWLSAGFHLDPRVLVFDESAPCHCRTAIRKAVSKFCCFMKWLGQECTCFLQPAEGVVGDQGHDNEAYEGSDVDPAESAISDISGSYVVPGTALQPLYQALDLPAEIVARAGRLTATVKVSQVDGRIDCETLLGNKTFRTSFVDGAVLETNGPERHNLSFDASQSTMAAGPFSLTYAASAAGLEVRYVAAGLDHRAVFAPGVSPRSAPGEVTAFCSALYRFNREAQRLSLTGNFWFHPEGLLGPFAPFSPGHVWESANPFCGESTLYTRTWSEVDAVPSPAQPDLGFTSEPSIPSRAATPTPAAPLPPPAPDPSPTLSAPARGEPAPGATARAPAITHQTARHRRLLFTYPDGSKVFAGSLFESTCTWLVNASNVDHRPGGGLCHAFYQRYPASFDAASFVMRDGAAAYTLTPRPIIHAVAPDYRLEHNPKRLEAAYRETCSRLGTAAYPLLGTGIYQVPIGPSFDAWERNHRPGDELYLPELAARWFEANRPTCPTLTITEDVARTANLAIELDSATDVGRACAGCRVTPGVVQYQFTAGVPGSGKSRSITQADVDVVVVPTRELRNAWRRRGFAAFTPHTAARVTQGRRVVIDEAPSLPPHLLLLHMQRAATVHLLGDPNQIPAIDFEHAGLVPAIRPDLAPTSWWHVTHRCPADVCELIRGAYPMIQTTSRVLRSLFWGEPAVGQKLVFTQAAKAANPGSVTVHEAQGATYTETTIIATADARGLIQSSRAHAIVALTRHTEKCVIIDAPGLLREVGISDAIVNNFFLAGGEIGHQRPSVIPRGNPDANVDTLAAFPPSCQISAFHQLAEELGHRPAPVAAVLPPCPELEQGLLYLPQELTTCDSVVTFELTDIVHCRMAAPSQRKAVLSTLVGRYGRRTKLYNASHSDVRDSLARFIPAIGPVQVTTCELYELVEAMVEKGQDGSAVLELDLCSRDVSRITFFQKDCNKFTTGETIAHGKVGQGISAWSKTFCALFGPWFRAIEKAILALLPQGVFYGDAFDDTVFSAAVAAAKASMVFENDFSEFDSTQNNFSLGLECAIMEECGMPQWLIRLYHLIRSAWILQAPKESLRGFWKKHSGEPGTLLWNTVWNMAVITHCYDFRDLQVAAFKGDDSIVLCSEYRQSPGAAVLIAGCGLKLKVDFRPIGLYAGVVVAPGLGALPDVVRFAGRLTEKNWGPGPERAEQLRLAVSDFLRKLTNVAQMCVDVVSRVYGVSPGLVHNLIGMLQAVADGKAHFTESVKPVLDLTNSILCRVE
UniProt P09871, sequence (whole entry, looked up): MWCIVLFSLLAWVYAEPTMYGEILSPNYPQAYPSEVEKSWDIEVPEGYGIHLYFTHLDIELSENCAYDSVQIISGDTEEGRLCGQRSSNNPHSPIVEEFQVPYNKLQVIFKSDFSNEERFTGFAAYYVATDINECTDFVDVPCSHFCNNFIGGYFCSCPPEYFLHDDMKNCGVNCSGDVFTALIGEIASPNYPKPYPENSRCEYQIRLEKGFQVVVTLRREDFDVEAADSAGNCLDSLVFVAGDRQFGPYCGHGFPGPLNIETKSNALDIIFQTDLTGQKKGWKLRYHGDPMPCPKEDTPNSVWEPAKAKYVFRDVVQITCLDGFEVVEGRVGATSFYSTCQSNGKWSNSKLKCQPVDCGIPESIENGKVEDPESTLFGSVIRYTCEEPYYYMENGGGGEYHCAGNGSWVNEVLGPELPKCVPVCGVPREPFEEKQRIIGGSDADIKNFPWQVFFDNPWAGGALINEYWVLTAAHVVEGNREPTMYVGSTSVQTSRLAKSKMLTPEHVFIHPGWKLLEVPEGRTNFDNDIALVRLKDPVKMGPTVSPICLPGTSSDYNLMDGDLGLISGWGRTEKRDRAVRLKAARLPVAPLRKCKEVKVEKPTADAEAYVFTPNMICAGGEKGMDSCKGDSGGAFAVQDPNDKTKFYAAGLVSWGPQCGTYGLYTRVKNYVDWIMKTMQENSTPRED
UniProt P11509, sequence (whole entry, looked up): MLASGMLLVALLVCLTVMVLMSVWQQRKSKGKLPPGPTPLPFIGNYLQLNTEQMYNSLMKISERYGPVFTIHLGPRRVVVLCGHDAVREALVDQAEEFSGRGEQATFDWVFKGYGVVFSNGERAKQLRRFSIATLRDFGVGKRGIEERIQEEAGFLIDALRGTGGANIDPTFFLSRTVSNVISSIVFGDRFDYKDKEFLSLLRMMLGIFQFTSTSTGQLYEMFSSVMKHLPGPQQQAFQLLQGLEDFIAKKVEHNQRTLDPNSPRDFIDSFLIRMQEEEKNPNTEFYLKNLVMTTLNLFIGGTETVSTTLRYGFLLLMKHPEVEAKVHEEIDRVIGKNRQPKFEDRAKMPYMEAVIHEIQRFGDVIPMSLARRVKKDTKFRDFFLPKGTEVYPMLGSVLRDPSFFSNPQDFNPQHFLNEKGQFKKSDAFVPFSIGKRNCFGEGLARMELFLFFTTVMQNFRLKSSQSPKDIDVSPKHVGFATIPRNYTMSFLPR
UniProt Q9Y253, sequence (whole entry, looked up): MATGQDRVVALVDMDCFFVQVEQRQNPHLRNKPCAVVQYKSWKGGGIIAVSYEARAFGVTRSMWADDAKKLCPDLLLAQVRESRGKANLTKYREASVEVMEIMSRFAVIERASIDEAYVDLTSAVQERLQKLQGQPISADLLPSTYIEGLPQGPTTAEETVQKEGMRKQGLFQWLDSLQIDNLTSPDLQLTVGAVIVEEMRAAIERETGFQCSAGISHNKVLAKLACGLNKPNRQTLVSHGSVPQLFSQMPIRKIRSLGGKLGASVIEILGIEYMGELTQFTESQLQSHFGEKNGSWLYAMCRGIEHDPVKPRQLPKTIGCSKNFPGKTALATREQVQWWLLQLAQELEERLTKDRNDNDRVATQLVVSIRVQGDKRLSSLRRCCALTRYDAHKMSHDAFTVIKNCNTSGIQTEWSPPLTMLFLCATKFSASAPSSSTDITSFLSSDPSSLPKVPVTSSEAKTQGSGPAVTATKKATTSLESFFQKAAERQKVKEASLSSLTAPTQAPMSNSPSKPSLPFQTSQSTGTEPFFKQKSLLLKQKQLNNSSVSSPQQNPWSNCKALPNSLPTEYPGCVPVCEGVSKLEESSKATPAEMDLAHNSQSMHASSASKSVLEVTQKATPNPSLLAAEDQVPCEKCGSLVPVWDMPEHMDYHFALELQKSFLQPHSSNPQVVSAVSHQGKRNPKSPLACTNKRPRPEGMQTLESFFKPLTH
UniProt Q96GD4, sequence (whole entry, looked up): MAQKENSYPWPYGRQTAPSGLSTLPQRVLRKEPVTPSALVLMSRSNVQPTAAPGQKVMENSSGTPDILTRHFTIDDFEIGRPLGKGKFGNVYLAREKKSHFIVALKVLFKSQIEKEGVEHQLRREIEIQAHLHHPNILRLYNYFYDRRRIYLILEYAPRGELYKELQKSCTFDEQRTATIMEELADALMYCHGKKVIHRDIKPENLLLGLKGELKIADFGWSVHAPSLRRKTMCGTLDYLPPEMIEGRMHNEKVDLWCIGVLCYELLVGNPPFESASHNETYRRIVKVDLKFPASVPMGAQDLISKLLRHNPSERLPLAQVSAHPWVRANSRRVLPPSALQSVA
UniProt P35240, sequence (whole entry, looked up): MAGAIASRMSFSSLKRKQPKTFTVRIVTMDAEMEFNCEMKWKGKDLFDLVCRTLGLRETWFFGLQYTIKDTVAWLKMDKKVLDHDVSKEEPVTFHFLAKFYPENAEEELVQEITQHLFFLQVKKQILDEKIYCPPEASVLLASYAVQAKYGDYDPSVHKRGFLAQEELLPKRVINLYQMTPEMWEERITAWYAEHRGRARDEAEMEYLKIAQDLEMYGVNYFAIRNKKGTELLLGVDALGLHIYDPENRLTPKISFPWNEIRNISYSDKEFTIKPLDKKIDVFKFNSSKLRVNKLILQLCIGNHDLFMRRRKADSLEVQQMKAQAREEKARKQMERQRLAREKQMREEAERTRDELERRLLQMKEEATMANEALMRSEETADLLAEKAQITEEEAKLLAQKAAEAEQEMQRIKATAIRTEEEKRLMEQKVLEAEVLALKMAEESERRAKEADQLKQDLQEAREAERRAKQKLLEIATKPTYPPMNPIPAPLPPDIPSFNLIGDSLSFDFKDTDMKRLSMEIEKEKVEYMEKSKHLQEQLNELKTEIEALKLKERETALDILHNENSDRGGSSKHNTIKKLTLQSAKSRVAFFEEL

Substance	target or system	test	system	conditions	quantity	value
B1 (α-TTP M209D)	alpha-tocopherol transfer protein variants	binding, fluorescence titration	–	with: NBD-Toc	Kd	0.012 µM
Nc1ncnc2c1ncn2[C@@H]1O[C@H](COP(=O)(O)OP(=O)(O)OP(=O)(O)O)[C@@H](O)[C@H]1O	Aurora kinase B (AURKB, Homo sapiens, UniProt Q96GD4)	–	–	–	Kd	31 µM
B2 (UGT1A9)	Oc1cccc2ccccc12	steady-state kinetics	–	pH 7.4, 37 °C	Km	0.25 µM
CCCCCCCC(=O)OC[C@H](COP(=O)(O)O[C@@H]1[C@H](O)[C@H](OP(=O)(O)O)[C@@H](O)[C@H](OP(=O)(O)O)[C@H]1O)OC(=O)CCCCCCC	Pleckstrin homology domain-containing family A member 7 (Homo sapiens, UniProt Q6IQ23)	binding, ITC	–	pH 7.6	Kd	4 µM
N=C(N)c1ccc(N2CCN(c3ccccc3)CC2)nc1	Complement C1s subcomponent (Homo sapiens, UniProt P09871)	binding, SPR	–	–	Kd	9.8 µM
c1ccc2c(c1)ccc1ccccc12	Cytochrome P450 2A6 (CYP2A6, Homo sapiens, UniProt P11509)	binding, absorbance	–	pH 7.4	Kd	2.8 µM
Nc1nc2c(ncn2[C@H]2C[C@H](O)[C@@H](COP(=O)(O)OP(=O)(O)OP(=O)(O)O)O2)c(=O)[nH]1	DNA polymerase eta (POLH, Homo sapiens, UniProt Q9Y253)	substrate	–	pH 8.0, 37 °C, pre-steady-state, Mg2+, with: dNTP opposite O2-Me-dT template	Kd	41 ± 12 µM
phosphatidylinositol 4,5-bisphosphate	NF2, FERM domain (Homo sapiens, UniProt P35240)	isothermal titration calorimetry	–	pH 7.5, 25 °C	Kd	3.38 ± 0.799 µM
O=P(O)(O)O[C@@H]1[C@H](O)[C@H](O)[C@@H](OP(=O)(O)O)[C@H](OP(=O)(O)O)[C@H]1O	Tyrosine-protein kinase ABL1, SH2 domain (Abl1, Mus musculus, UniProt P00520)	HSQC NMR titration	–	SH2 domain, no KCl	Kd	85 ± 5 µM
N=C(N)Nc1ccc(OC(=O)c2ccc(NC(=N)N)cc2)cc1	RNA with single 5'CAG/3'GAC motif	binding, fluorescence anisotropy competition	–	–	Kd	0.06 ± 0.03 µM
NC(=O)c1ncn([C@@H]2O[C@H](CO)[C@@H](O)[C@H]2O)n1	Non-structural polyprotein pORF1, RNA-dependent RNA polymerase (Hepatitis E virus genotype 1, UniProt P33424)	binding, microscale thermophoresis	–	–	Kd	~0.03 µM and 0.03 µM
Nc1nc2c(nc(SCCNc3ccc([N+](=O)[O-])c4nonc34)n2[C@@H]2O[C@@H]3COP(=O)(O)O[C@@H]3C2O)c(=O)[nH]1 (stereo partly drawn)	Cyclic nucleotide-gated potassium channel (Spirochaeta thermophila, UniProt G0GA88)	binding, fluorescence titration	amphipol A8-35	pH 7.4, room temperature	Kd	2.7 µM
